Measurements of several laboratories.
Values joined by “and” are separate records of one study, mostly repeats; a detail may differ. ± gives the spread as reported.

SMILES | tested on | assay | test system | setting | scale | endpoint | value
CCN(C(=O)c1cc(F)ccc1Oc1nncnc1N1CCC2(C1)CN([C@H](CCCN(C)CCOC)C(C)C)C2)C(C)C | ASPC1 | cell growth or viability |  | 7 days |  | GI50 | > 10000 nM
COc1ccc(C([O-])=CC(=O)c2ccc(C(C)(C)C)cc2)cc1.[Cl-].[Ru+2].c1ccc(-c2cccc(-c3ccccn3)n2)nc1 | HL-60 |  |  |  | baseline: dark IC50 over light IC50 | phototoxicity index | 1.3
CCN(CC)CC(=O)Nc1cccc(-n2cc(-c3ccc4ccc(-c5cn(-c6cccc(NC(=O)CN(CC)CC)c6)nn5)cc4c3)nn2)c1 | RCC4 | PCR angiogenesis array, measured: CXCL1 |  | 5 x IC50, 2 h, normoxia | baseline: untreated | fold regulation | 1.08
O=C(CC(=O)Nc1ccc2c(/C=C/c3ccccn3)n[nH]c2c1)Nc1ccc(Cl)c(C(F)(F)F)c1 | Ba/F3 TEL-VEGFR1 | cell growth, CCK-8 |  |  |  | GI50 | 500 nM
N#Cc1cccc(/C=C/C(=O)c2ccc(O)cc2)c1 | U-87 MG | measured: RNF103 |  | concentration not given | baseline: untreated | fold change | 41.3
COc1ccccc1-c1ccncc1C(=O)Nc1nnc(OCc2ccc(Cl)cc2)s1 | MDA-MB-436 (BRCA1 mutant) | colony formation |  | 0.375 µM | baseline: untreated control | colony survival | 62%
COC(=O)c1cc(NC2=NC(=O)C(=Cc3ccc(N(C)C)cc3)S2)ccc1OC(C)=O | MCF7 | measured: CDC45 mRNA |  | 0.81 µM (IC50), 24 h | baseline: DMSO | fold change | 0.143
CNS(=O)(=O)Nc1nccc(Cc2c(C)c3ccc(Oc4ncccc4F)cc3oc2=O)c1F | P31-FUJ | cell viability, CellTiter-Glo |  | 7 days |  | IC50 | 17.4 nM
O=C1CC[C@H](N2Cc3cc(-c4ccn5ncc(Cl)c5n4)ccc3C2=O)C(=O)N1 | MOLM-13 | mRNA level, RNA-seq, measured: PSAT1 |  | 200 nM, 24 h | baseline: DMSO | log2 fold change | -3.27
COc1cc(C(=O)N2CC[C@@H](O)[C@@H](N)C2)cc2nc(-c3cc4cccnc4n3CC3CC3)n(C)c12 | human neutrophils | protein citrullination, inhibitor, flow cytometry, measured: citrullinated proteins |  | 3.16 µM, with: ionomycin |  | inhibition | 31.1% and 27.3% and 45% and 49%
O=C1c2c(O)cc(O)cc2-c2c(-c3ccc(O)cc3)oc3cc(O)cc1c23 | LCC2 shControl | label-free proteomics, measured: SMTN |  | 10 µM | baseline: DMSO | protein level ratio | 6.7
Cc1ccncc1.[Cl-].[Cl-].[Ru+2].c1cc(-c2ccc3cccnc3n2)nc(-c2ccc3cccnc3n2)c1.c1ccc2cc3nc4c5cccnc5c5ncccc5c4nc3cc2c1 | A-375 | resazurin |  | with: light 633 nm, 100 J/cm2 | baseline: dark EC50 over light EC50 | phototoxicity index | 31
CO[C@@H]1[C@@H](OC(N)=O)[C@@H](O)[C@H](Oc2ccc3c(O)c(NC(=O)c4ccc(O)c(CC=C(C)C)c4)c(=O)oc3c2C)OC1(C)C | HCT-116 BRCA2-/- |  |  | 300 µM, replicate 1 |  | colony count | 0.1
CN1CCCNC(=O)c2cccc(c2)C(=O)NCCCN(C)CCCNc2cccc3c2C(=O)c2cccc(c2C3=O)NCCC1 | SAS | RNA-Seq, measured: NME6 mRNA |  | 1 µM, 6 h | baseline: untreated cells | log2 fold change | 0.628
CN(C)Cc1nc(Nc2ccc(-c3cnc4cc(F)ccn34)c3c2C(=O)NC3)ccc1C1CCOC1 (centres unmarked) | mouse BMDC | flow cytometry |  | 10 µM |  | CD40-positive cells | 41%
CN(C)c1ccc(-n2cc(COC(=O)[C@@]3(C)C=C(C(=O)OC(C)(C)C)C(=O)CC3)nn2)cc1 | AP-1 reporter HEK293 | AP-1 reporter gene, luciferase reporter |  | 10 µM, 6 h, with: PMA 6 ng/mL | higher = more transcription | luminescence | 1460 a.u.
COCCn1cc(COc2cccc(Cc3cnc(NC(=O)CSc4nc(C)cc(C)n4)s3)c2)nn1 | PC-3M-luc | cell viability, MTS |  | 10 µM |  | inhibition | 27.4 ± 1.9%
COc1ccc2c(c1)OC1=C(C(=O)CCC1)C2c1c[nH]c2ccccc12 (centres unmarked) | 3T3-L1 during adipogenesis | Oil Red O |  | IC20 | baseline: untreated | lipid content reduction | ~80%
CCOc1cncc(-c2ccc(NC(=O)C3(c4ccnc(NS(=O)(=O)C5CC5)n4)CCOCC3)nc2)n1 | UOC-M1 | cell proliferation, CellTiter-Glo |  | 72 h, myeloid haematological cancer |  | IC50 | 66 nM

SMILES | tested on | assay | test system | setting | scale | endpoint | value
C[n+]1ccc(/C=N/NC(=O)c2cccc(C(=O)N/N=C/c3cc[n+](C)cc3)c2)cc1 | MYC parallel G4 DNA | FRET melting |  | 1 µM, DNA 0.2 µM |  | ΔTm | 1.1 ± 0.5 °C
C1=[N+]2CCCC[N+]3=Cc4ccc5[n]4[Au-]23[n]2c1ccc2-c1nc2ccccc2nc1-5.F[P-](F)(F)(F)(F)F | NCI-H322M | NCI60 five-dose screen |  |  |  | TGI | 4.37 -log M
CCCCCCCCCCCC(=O)N[C@@H](CO)C[C@@H](O)c1cccc(CCCCCC)c1 | HeLa | CERT activity, HPLC-MS/MS lipidomics, measured: sphingomyelin 24 |  | 1 µM, 24 h, not cell-number normalised |  | sphingomyelin level | 44500 pmol/sample and 61100 pmol/sample and 54500 pmol/sample
CC(C)C[C@@H]1NC(=O)[C@H](CC(C)C)NC(=O)[C@H](Cc2c[nH]c3ccccc23)NC(=O)[C@H](CO)NC(=O)[C@H](Cc2c[nH]c3ccccc23)NC(=O)[C@@H]2CCCN2C(=O)[C@H](CC(C)C)NC(=O)[C@H](Cc2c[nH]cn2)NC(=O)[C@@H]2CCCN2C(=O)[C@H](CC(N)=O)NC(=O)[C@H](C)NC(=O)[C@H](Cc2ccc(O)cc2)NC(=O)[C@H](CS)NC(=O)[C@H](CCCCNC(=O)CN2CCN(CC(=O)O)CCN(CC(=O)O)CCN(CC(=O)O)CC2)NC1=O [lutetium-177 labelled] | 4T1 | flow cytometry |  | 0.4 Bq/cell, 24 h |  | dead cells | 24.2%
CC(=O)OC[C@H]1O[C@@H](n2cc(CSc3nc4ccccc4n3Cc3cn([C@@H]4O[C@H](COC(C)=O)[C@@H](OC(C)=O)C(OC(C)=O)[C@H]4OC(C)=O)nn3)nn2)[C@H](OC(C)=O)C(OC(C)=O)[C@@H]1OC(C)=O (stereo in doubt) | Caco-2 | MTT |  | 31.3 ppm |  | cytotoxicity | 83.2%
CC(C)(C)n1cc(CN(Cc2cn(CC(=O)O)nn2)Cc2cn(C(C)(C)C)nn2)nn1 | OVCAR-5, HPG-incorporated | live-cell CuAAC, LC-ESI-MS/MS | cytosolic proteins | concentration not given, 10 min, suspended cells, scraper-detached |  | amount of labelled product | 1.07 pg/µg protein and 1.15 pg/µg protein and 1.06 pg/µg protein
C[n+]1ccc(/C=N/NC(=O)c2cc(C(=O)N/N=C/c3cc[n+](C)cc3)ncn2)cc1 | hp2 hairpin duplex DNA | FRET melting |  | 1 µM |  | ΔTm | 0.2 ± 0.1 °C
C=CC(=O)N1CCCC(n2c(=O)c3ncccc3n(Cc3ccc(Oc4ccccc4)cc3)c2=O)C1 (centres unmarked) | Maver1 | cell growth or viability, MTT |  | 72 h |  | IC50 | 20000 nM
CC(C)(C)c1cc(-c2ccc3cc4ccccc4nc3n2)nc(-c2ccc3cc4ccccc4nc3n2)c1.[Cl-].[Cl-].[Ru+2].c1ccc2cc3nc4c5cccnc5c5ncccc5c4nc3cc2c1 | A-375 | cytotoxicity, resazurin |  | dark |  | EC50 | 50000 nM
Cc1ncsc1-c1ccc(C(C)NC(=O)C2CC(O)CN2C(=O)C(NC(=O)CCCCCCCCCCN2CCCC(Nc3ncc(Cl)c(Nc4ccccc4S(=O)(=O)C(C)C)n3)C2)C(C)(C)C)cc1 (centres unmarked) | 22Rv1 | RNA-seq, measured: NUP37 mRNA |  | concentration not given | baseline: DMSO | log2 fold change | -1.26
Fc1cncc(-c2ccc3[nH]c4ncnc(N[C@H]5CC[C@H](N6CCOCC6)CC5)c4c3c2)c1 | OCI-Ly3 |  |  | concentration not given |  | STAT3 phosphorylation and IL-6 secretion | decreased
COc1cc(N2CCOCC2)ccc1Nc1ncc(Cl)c(Nc2ccccc2NS(C)(=O)=O)n1 | PC-9 EGFR del19/T790M/C797S |  |  | 0.03 to 3 µM, 24 h |  | BrdU-positive cells | decreased
Cc1cc(Cl)cc(-c2ccnc3cc(CN4C(=O)C5C(C4=O)C5(C)C)sc23)c1C[C@@H]1CNCCO1 (some centres unmarked) | CHP-212 parental (wild-type USP7) | annexin V-PI flow cytometry |  | 0.3 µM, 48 h |  | viable cells (annexin V-/PI-) | 58.2% and 71.5% and 62.7%
CCn1nc(Cl)c2c1-c1cnc(N)c(c1)O[C@H](C)c1cc(F)ccc1-c1nn(C)cc1C2 | Ba/F3 EML4-ALK v3, no mutation | cell viability |  |  |  | Emax | 99.7%
COc1cc(/C=C/C(=O)CC(C)=O)ccc1O | A549 | PI staining flow cytometry |  | 50 µM, 48 h |  | cells in S phase | 2.46%
CC(C)c1ccc(N(C)c2ccc3c(c2)OCC[C@H]3CNc2cnccc2C(=O)O)cc1 | SK-MES-1 | cell growth or viability, ATP luminescence |  | 7 days |  | IC50 | 47.5 nM
C=CC(=O)N1[C@H](c2ccc3c(c2)OCO3)c2[nH]c3ccccc3c2C[C@@H]1C(=O)NC | rat DRG neurons |  |  | 10 µM, 48 h, with: vincristine 40 nM |  | neuron degeneration | 11.9% and 11%
CC(C)(C)c1cc(-c2ccc3cccnc3n2)nc(-c2ccc3cccnc3n2)c1.COc1ccncc1.[Cl-].[Cl-].[Ru+2].c1ccc2cc3nc4c5cccnc5c5ncccc5c4nc3cc2c1 | A-375 | resazurin |  | with: light 523 nm, 100 J/cm2 | baseline: dark EC50 over light EC50 | phototoxicity index | 45
Cn1ncc2cc(-c3cncc(Cl)c3N3CCC4(CCNC4=O)CC3)ccc21 | LS174T | gene expression, microarray, measured: MAT2A mRNA |  | concentration not given, 4 h | baseline: untreated cells | log2 fold change | 1.06

For quick reference, copied from above:
SMILES | tested on | assay | test system | setting | scale | endpoint | value
CO[C@@H]1[C@@H](OC(N)=O)[C@@H](O)[C@H](Oc2ccc3c(O)c(NC(=O)c4ccc(O)c(CC=C(C)C)c4)c(=O)oc3c2C)OC1(C)C | HCT-116 BRCA2-/- |  |  | 300 µM, replicate 1 |  | colony count | 0.1
CN1CCCNC(=O)c2cccc(c2)C(=O)NCCCN(C)CCCNc2cccc3c2C(=O)c2cccc(c2C3=O)NCCC1 | SAS | RNA-Seq, measured: NME6 mRNA |  | 1 µM, 6 h | baseline: untreated cells | log2 fold change | 0.628
CN(C)Cc1nc(Nc2ccc(-c3cnc4cc(F)ccn34)c3c2C(=O)NC3)ccc1C1CCOC1 (centres unmarked) | mouse BMDC | flow cytometry |  | 10 µM |  | CD40-positive cells | 41%
CN(C)c1ccc(-n2cc(COC(=O)[C@@]3(C)C=C(C(=O)OC(C)(C)C)C(=O)CC3)nn2)cc1 | AP-1 reporter HEK293 | AP-1 reporter gene, luciferase reporter |  | 10 µM, 6 h, with: PMA 6 ng/mL | higher = more transcription | luminescence | 1460 a.u.
